# Results gathered from unrelated publications.
# Protocols differ between the studies behind these lines. ± marks the error that the study gave.
SMILES,assay,test system,conditions,half-life [h]
CCc1ccc([C@@H]2C[C@H](C(F)(F)F)n3ncc(C(=O)NCc4ccc(OC)cc4)c3N2)cc1,,mouse liver microsomes,,> 0.5
NCCCC[C@H](NC(=O)[C@H](Cc1ccccc1)NC(=O)[C@@H](CCCN=C(N)N)NC(=O)[C@@H](N)Cc1ccc(O)cc1)C(N)=O,trypsin cleavage,,"1 µM, pH 7.4, room temperature",~12
c1cc2c(s1)CCOC21CCN(Cc2ccc3c(c2)OCCO3)CC1,,mouse liver microsomes,,< 0.05
CC(=O)N[C@@H](Cc1ccc(O)cc1)C(=O)N[C@@H](CC(=O)O)C(=O)N[C@H]1CCC[C@@H]1C(=O)N[C@@H](Cc1ccccc1)C(=O)N[C@@H](Cc1ccc(O)cc1)C(=O)N[C@H]1CCC[C@@H]1C(=O)N[C@@H](Cc1ccc(O)cc1)C(=O)N[C@H](C(=O)N[C@H](C(=O)N[C@@H](Cc1ccccc1)C(=O)N[C@@H](Cc1c[nH]cn1)C(=O)N[C@H](C(=O)N[C@@H](C)C(=O)N[C@H](C(N)=O)[C@@H](C)O)C(C)C)[C@@H](C)O)C(C)C,LC-MS,human serum,"10 µM, 37 °C",2.6
COC(=O)C[C@H](NC(=O)CNC(=O)[C@H](CCCNC(=N)NS(=O)(=O)c1c(C)c(C)c2c(c1C)CC(C)(C)O2)NC(=O)[C@H](C)N1C(=O)c2ccccc2C1=O)C(=O)N[C@@H](Cc1cccc(I)c1)C(=O)OC,,,"50 µM, pH 7.4, 25 °C, together with: endoprotease AspN",0.833
N#Cc1ccc(NC(=O)c2cccnc2)cc1Cl,plasma stability,human plasma,"5 µM, 37 °C",> 2
CC(C)[C@H](NC(=O)[C@H]1CCC[C@@H]1NC(=O)[C@H](CC(N)=O)NC(=O)[C@H](CCCNC(=N)N)NC(=O)[C@H]1CCC[C@@H]1NC(=O)[C@@H](N)Cc1ccccc1)C(=O)N[C@@H](Cc1ccccc1)C(=O)N[C@H]1CCC[C@@H]1C(=O)N[C@@H](Cc1ccccc1)C(=O)N[C@@H](Cc1ccc(O)cc1)C(=O)N[C@H]1CCC[C@@H]1C(=O)N[C@H](C(=O)N[C@@H](CC(=O)O)C(N)=O)[C@@H](C)O,LC-MS,human serum,"10 µM, 37 °C",0.38
CC[C@H](C)[C@H](NC(=O)[C@@H](NC(=O)[C@H](CC(N)=O)NC(=O)[C@H](CCC(N)=O)NC(=O)[C@@H]1CCCN1C(=O)[C@@H](NC(=O)[C@H](Cc1ccc(O)cc1)NC(=O)CNC(=O)[C@H](Cc1ccc(O)cc1)NC(=O)[C@H](Cc1c[nH]c2ccccc12)NC(=O)[C@H](Cc1c[nH]cn1)NC(=O)[C@H](Cc1ccc(O)cc1)NC(=O)CCOCCOCCOCCOCCOCCOCCC(=O)NCCCN(CCCNC(=O)CCOCCOCCOCCOCCOCCOCCC(=O)N[C@@H](Cc1ccc(O)cc1)C(=O)N[C@@H](Cc1c[nH]cn1)C(=O)N[C@@H](Cc1c[nH]c2ccccc12)C(=O)N[C@@H](Cc1ccc(O)cc1)C(=O)NCC(=O)N[C@@H](Cc1ccc(O)cc1)C(=O)N[C@H](C(=O)N1CCC[C@H]1C(=O)N[C@@H](CCC(N)=O)C(=O)N[C@@H](CC(N)=O)C(=O)N[C@H](C(=O)N[C@H](C(=O)O)[C@@H](C)CC)C(C)C)[C@@H](C)O)CC(=O)NCCCN(CCCNC(=O)CN(CCCNC(=O)CCOCCOCCOCCOCCOCCOCCC(=O)N[C@@H](Cc1ccc(O)cc1)C(=O)N[C@@H](Cc1c[nH]cn1)C(=O)N[C@@H](Cc1c[nH]c2ccccc12)C(=O)N[C@@H](Cc1ccc(O)cc1)C(=O)NCC(=O)N[C@@H](Cc1ccc(O)cc1)C(=O)N[C@H](C(=O)N1CCC[C@H]1C(=O)N[C@@H](CCC(N)=O)C(=O)N[C@@H](CC(N)=O)C(=O)N[C@H](C(=O)N[C@H](C(=O)O)[C@@H](C)CC)C(C)C)[C@@H](C)O)CCCNC(=O)CCOCCOCCOCCOCCOCCOCCC(=O)N[C@@H](Cc1ccc(O)cc1)C(=O)N[C@@H](Cc1c[nH]cn1)C(=O)N[C@@H](Cc1c[nH]c2ccccc12)C(=O)N[C@@H](Cc1ccc(O)cc1)C(=O)NCC(=O)N[C@@H](Cc1ccc(O)cc1)C(=O)N[C@H](C(=O)N1CCC[C@H]1C(=O)N[C@@H](CCC(N)=O)C(=O)N[C@@H](CC(N)=O)C(=O)N[C@H](C(=O)N[C@H](C(=O)O)[C@@H](C)CC)C(C)C)[C@@H](C)O)CC(=O)NCCOCCOCCOCCOCCC(=O)N[C@@H](CCCCNC(=O)CC[C@H](C(=O)O)N1CCN(CC(=O)O)CCN(CC(=O)O)CC1)C(N)=O)[C@@H](C)O)C(C)C)C(=O)O [gallium-68 labelled],radio-HPLC,human serum,37 °C,1.03
CC(C)(C)C(=O)OCOP(=O)(OCOC(=O)C(C)(C)C)C1CCCN(O)C1=O (stereo not drawn),,human blood,ex vivo,~0.15
CCC(CC)OC1C=C(C(=O)OC(C)OC(=O)C(N)C(C)CC)CC(NC(=N)N)C1NC(C)=O (mixture of isomers),,Caco-2 cell homogenate,"pH 7.4, 37 °C, 500 µg/mL protein",0.44 ± 0.0517
CC(COC(=O)c1ccccc1)OC(=O)C(N)C(C)C (mixture of isomers),,rat intestinal homogenate,37 °C,< 1
C#Cc1c(F)ccc2cc(O)cc(-c3ncc4c(N5CC6CCC(C5)N6C(=O)OCc5ccc(NC(=O)OCCCC)cc5)nc(OC[C@@]56CCCN5C[C@H](F)C6)nc4c3F)c12,,mouse whole blood,1 µM,5.78
CCCCCCCC(=O)OC[C@H](NC(=O)[C@H](CO)NC(=O)CN)C(=O)N[C@@H](Cc1ccccc1)C(=O)N[C@@H](CC(C)C)C(=O)N[C@@H](CO)C(=O)N1CCC[C@H]1C(=O)N[C@@H](CCC(=O)O)C(=O)N[C@@H](Cc1cnc[nH]1)C(=O)N[C@@H](CCC(N)=O)C(=O)N[C@@H](CCCNC(=N)N)C(=O)N[C@H](C(=O)N[C@@H](CCC(N)=O)C(=O)N[C@@H](CCC(N)=O)C(=O)N[C@@H](CCCNC(=N)N)C(=O)N[C@@H](CCCCN)C(=O)N[C@@H](CCC(=O)O)C(=O)N[C@@H](CO)C(=O)N[C@@H](CCCCN)C(=O)N[C@@H](CCCCN)C(=O)N1CCC[C@H]1C(=O)N1CCC[C@H]1C(=O)N[C@@H](C)C(=O)N[C@@H](CCCCN)C(=O)N[C@@H](CC(C)C)C(=O)N[C@@H](CCC(N)=O)C(=O)N1CCC[C@H]1C(=O)N[C@@H](CCCNC(=N)N)C(=O)O)C(C)C,two-site ELISA,"healthy men and women, plasma","continuous intravenous infusion, 3 µg/kg/h, 65 min infusion",0.167 ± 0.05
Cc1ccc(OCCN(C)C)cc1C(=O)N[C@H](C)c1cc(-c2cnn(C)c2)cc(-c2cnn(CCN3CCOCC3)c2)c1,,mouse liver microsomes,,> 2.42
O=C(Cc1ccc2ccccc2c1)N[C@H](Cc1ccccc1)C(=O)N[C@H](Cc1ccc(O)cc1)C(=O)N[C@H](Cc1ccccc1)C(=O)N[C@H](Cc1ccc(OP(=O)(O)O)cc1)C(=O)O,substrate,HepG2 cell lysate,"500 µM, pH 7.4, 37 °C",> 6
CC(C)C[C@@H]1NC(=O)Cc2ccc(nc2)-c2ccc(nc2)CSC[C@@H](C(=O)N[C@@H](CCC(=O)O)C(=O)N[C@@H](CC(C)C)C(=O)N[C@@H](Cc2c[nH]cn2)C(=O)N2CCC[C@H]2C(=O)N[C@@H](CC(C)C)C(=O)N[C@@H](CCCCN)C(=O)N2CCC[C@H]2C(=O)NCC(=O)N[C@@H](CS)C(=O)NCC(N)=O)NC(=O)[C@H](Cc2ccc(O)cc2)NC(=O)[C@H](CCCCN)NC(=O)[C@H](CCC(N)=O)NC(=O)[C@H](C(C)C)NC1=O,,human serum,"10 µM, 37 °C",26
CC[C@H](C)[C@H](NC(=O)[C@H](CCCN)NC(=O)[C@H](CC(N)=O)NC(=O)[C@H](Cc1c[nH]c2ccccc12)NC(=O)[C@H](Cc1ccccc1)NC(=O)[C@H](CCCN)NC(=O)[C@H](CCCCNC(=N)N)NC(=O)[C@H](CC(C)C)NC(=O)[C@H](Cc1c[nH]c2ccccc12)NC(=O)[C@H](CCCN)NC(=O)[C@H](CCCCNC(=N)N)NC(=O)[C@H](CC(C)C)NC(=O)CNC(C)=O)C(=O)N[C@@H](CCCN)C(=O)N[C@@H](CCCCNC(=N)N)C(N)=O,HPLC,25% human plasma,37 °C,235
N=C(N)NCCC[C@@H]1NC(=O)[C@H](CCCNC(=N)N)NC(=O)[C@H](CCCNC(=N)N)NC(=O)[C@H](CCCNC(=N)N)NC(=O)[C@H](Cc2c[nH]c3ccccc23)NC(=O)[C@H](CCCNC(=N)N)NC(=O)[C@H](CCCNC(=N)N)NC(=O)[C@@H](N)CCCCn2cc(nn2)C[C@@H](C(N)=O)NC1=O,"trypsin degradation, HPLC",PBS,"pH 7.4, 37 °C, together with: trypsin 0.1 ng/mL",0.372
Cc1ccc2nc(C)c(C(=O)NCc3cccs3)n2c1,,mouse liver microsomes,,< 0.05
C/C(=N\OCCCN1CCCCC1)c1ccc(C(F)(F)F)cc1,,human plasma,,> 12.8
COc1ccc2nc(C)cc(OCC(=O)Nc3cc(C)cc(C)c3)c2c1,,human liver microsomes,,0.292
CC[C@H](C)[C@H](NC(=O)[C@H](CC(N)=O)NC(=O)[C@@H]1CCCN1C(=O)[C@H](CO)NC(=O)[C@H](CC(N)=O)NC(=O)[C@@H](N)CCC(N)=O)C(=O)N[C@@H](Cc1ccccc1)C(=O)NCC(=O)N[C@@H](CCC(N)=O)C(=O)N[C@@H](Cc1c[nH]c2ccccc12)C(=O)N[C@@H](CCSC)C(=O)O,,PBS with chymotrypsin,"0.28 mM, pH 7.2, 37 °C, together with: chymotrypsin 50 nM",2
CC[C@H](C)[C@@H]1NC(=O)[C@H](CCCNC(=N)N)NC(=O)[C@H](CC(=O)O)NC(=O)[C@H](CCSC)NC(=O)[C@H](CCCCN)NC(=O)[C@H](CCCNC(=N)N)NC(=O)CNC(=O)[C@H](Cc2ccccc2)NC(=O)[C@@H](NC(=O)CNC(=O)[C@H](CO)NC(=O)CNC(=O)[C@H](CCC(N)=O)NC(=O)[C@@H](NC(=O)[C@H](CCSC)NC(=O)[C@H](CCCCN)NC(=O)[C@@H]2CCCN2C(=O)[C@@H](N)CO)C(C)C)CSSC[C@@H](C(=O)N[C@@H](CCCCN)C(=O)N[C@H](C(=O)N[C@@H](CC(C)C)C(=O)N[C@@H](CCCN=C(N)N)C(=O)N[C@@H](CCCN=C(N)N)C(=O)N[C@@H](Cc2cnc[nH]2)C(=O)O)C(C)C)NC(=O)CNC(=O)[C@H](CC(C)C)NC(=O)CNC(=O)[C@H](CO)NC(=O)[C@H](CO)NC(=O)[C@H](CO)NC(=O)[C@H](CO)NC1=O,,human kidney membranes,"1 µM, pH 7.5, 37 °C",0.07
N=C(N)NCCCCCCN1CCC23c4c5ccc(O)c4OC2c2nc4ccccc4cc2CC3(O)C1C5 (stereo not drawn),,human plasma,10 µM,> 8

# For quick reference, copied from above:
SMILES,assay,test system,conditions,half-life [h]
CC(C)[C@H](NC(=O)[C@H]1CCC[C@@H]1NC(=O)[C@H](CC(N)=O)NC(=O)[C@H](CCCNC(=N)N)NC(=O)[C@H]1CCC[C@@H]1NC(=O)[C@@H](N)Cc1ccccc1)C(=O)N[C@@H](Cc1ccccc1)C(=O)N[C@H]1CCC[C@@H]1C(=O)N[C@@H](Cc1ccccc1)C(=O)N[C@@H](Cc1ccc(O)cc1)C(=O)N[C@H]1CCC[C@@H]1C(=O)N[C@H](C(=O)N[C@@H](CC(=O)O)C(N)=O)[C@@H](C)O,LC-MS,human serum,"10 µM, 37 °C",0.38
CC[C@H](C)[C@H](NC(=O)[C@@H](NC(=O)[C@H](CC(N)=O)NC(=O)[C@H](CCC(N)=O)NC(=O)[C@@H]1CCCN1C(=O)[C@@H](NC(=O)[C@H](Cc1ccc(O)cc1)NC(=O)CNC(=O)[C@H](Cc1ccc(O)cc1)NC(=O)[C@H](Cc1c[nH]c2ccccc12)NC(=O)[C@H](Cc1c[nH]cn1)NC(=O)[C@H](Cc1ccc(O)cc1)NC(=O)CCOCCOCCOCCOCCOCCOCCC(=O)NCCCN(CCCNC(=O)CCOCCOCCOCCOCCOCCOCCC(=O)N[C@@H](Cc1ccc(O)cc1)C(=O)N[C@@H](Cc1c[nH]cn1)C(=O)N[C@@H](Cc1c[nH]c2ccccc12)C(=O)N[C@@H](Cc1ccc(O)cc1)C(=O)NCC(=O)N[C@@H](Cc1ccc(O)cc1)C(=O)N[C@H](C(=O)N1CCC[C@H]1C(=O)N[C@@H](CCC(N)=O)C(=O)N[C@@H](CC(N)=O)C(=O)N[C@H](C(=O)N[C@H](C(=O)O)[C@@H](C)CC)C(C)C)[C@@H](C)O)CC(=O)NCCCN(CCCNC(=O)CN(CCCNC(=O)CCOCCOCCOCCOCCOCCOCCC(=O)N[C@@H](Cc1ccc(O)cc1)C(=O)N[C@@H](Cc1c[nH]cn1)C(=O)N[C@@H](Cc1c[nH]c2ccccc12)C(=O)N[C@@H](Cc1ccc(O)cc1)C(=O)NCC(=O)N[C@@H](Cc1ccc(O)cc1)C(=O)N[C@H](C(=O)N1CCC[C@H]1C(=O)N[C@@H](CCC(N)=O)C(=O)N[C@@H](CC(N)=O)C(=O)N[C@H](C(=O)N[C@H](C(=O)O)[C@@H](C)CC)C(C)C)[C@@H](C)O)CCCNC(=O)CCOCCOCCOCCOCCOCCOCCC(=O)N[C@@H](Cc1ccc(O)cc1)C(=O)N[C@@H](Cc1c[nH]cn1)C(=O)N[C@@H](Cc1c[nH]c2ccccc12)C(=O)N[C@@H](Cc1ccc(O)cc1)C(=O)NCC(=O)N[C@@H](Cc1ccc(O)cc1)C(=O)N[C@H](C(=O)N1CCC[C@H]1C(=O)N[C@@H](CCC(N)=O)C(=O)N[C@@H](CC(N)=O)C(=O)N[C@H](C(=O)N[C@H](C(=O)O)[C@@H](C)CC)C(C)C)[C@@H](C)O)CC(=O)NCCOCCOCCOCCOCCC(=O)N[C@@H](CCCCNC(=O)CC[C@H](C(=O)O)N1CCN(CC(=O)O)CCN(CC(=O)O)CC1)C(N)=O)[C@@H](C)O)C(C)C)C(=O)O [gallium-68 labelled],radio-HPLC,human serum,37 °C,1.03
CC(C)(C)C(=O)OCOP(=O)(OCOC(=O)C(C)(C)C)C1CCCN(O)C1=O (stereo not drawn),,human blood,ex vivo,~0.15
CCC(CC)OC1C=C(C(=O)OC(C)OC(=O)C(N)C(C)CC)CC(NC(=N)N)C1NC(C)=O (mixture of isomers),,Caco-2 cell homogenate,"pH 7.4, 37 °C, 500 µg/mL protein",0.44 ± 0.0517
